Measured values pooled from the literature.
Lines come from different studies, so protocols differ.
Organism: Klebsiella pneumoniae

The MIC of `CC(C)C[C@@H]1NC(=O)[C@@H](Cc2ccccc2)NC(=O)[C@H](CCN)NC(=O)[C@@H](NC(=O)[C@H](CCN)NC(=O)[C@@H](N)[C@@H](C)O)CCNC(=O)[C@H]([C@@H](C)O)NC(=O)[C@H](CCN)NC(=O)[C@H](CCN)NC1=O` is reported as 3.13 µg/mL (ATCC 13883; in combination, checkerboard, added: rifampicin).
With `CN(C)c1ccc(O)c2c1C[C@H]1C[C@H]3[C@H](N(C)C)C(O)=C(C(N)=O)C(=O)[C@@]3(O)C(O)=C1C2=O` the MIC was < 0.5 µg/mL (broth microdilution; ATCC 43816 acrAB knockout).
With `CN(C)[C@@H]1C(O)=C(C(N)=O)C(=O)[C@@]2(O)C(O)=C3C(=O)c4c(O)cccc4[C@@](C)(O)[C@H]3C[C@@H]12` the MIC was 1000 µM (ATCC BAA-2146).
`C[C@H]1COc2c(N3CCN(C)CC3)c(F)cc3c(=O)c(C(=O)O)cn1c23` has an MIC of 64 µg/mL (broth microdilution; NCTC 13438; 24 h, ambient air).
`O=C(Cc1ccccc1)N[C@@H]1C(=O)N2C(C(=O)O)=C(CSc3cccc4cccnc34)CS[C@H]12` gave an MIC of 32 µg/mL (11228).
For `Cc1c(CN(C)C(=O)/C=C/c2cnc3c(c2)CC(NC(=O)OC(C)(C)C)C(=O)N3)oc2ccccc12` (centres unmarked), the MIC was > 32 µg/mL (broth microdilution; AR-0555).
With `CO/N=C(\C(=O)N[C@@H]1C(=O)N2C(C(=O)O)=C(COC(C)=O)CS[C@H]12)c1csc(N)n1` the MIC was 8 µg/mL (ALE, CTX-M-15, Mueller-Hinton broth; overnight, 37 °C).
For `NC[C@H]1O[C@H](O[C@H]2[C@H](O)[C@@H](O[C@H]3O[C@H](CO)[C@@H](O)[C@H](N)[C@H]3O)[C@H](N)C[C@@H]2N)[C@H](O)[C@@H](O)[C@@H]1O`, the MIC was 1 µg/mL (broth microdilution; ATCC 43816; 16 h, 37 °C, cation-adjusted Mueller-Hinton broth).
`O=C(O)c1ccc(NCc2cccc([N+](=O)[O-])c2)cc1` gave an MIC of 64 µg/mL (broth microdilution).
For `C[C@H]1COc2c(N3CCN(C)CC3)c(F)cc3c(=O)c(C(=O)O)cn1c23`, the MIC was 0.5 µg/mL (agar dilution; ATCC 700603 ESBL).
The MIC of `Cc1c(CN(C)C(=O)/C=C/c2cnc3c(c2)CCC(=O)N3)oc2ccccc12` is reported as > 32 µg/mL (broth microdilution; AR-0560).
`O=C(O)c1cn(C2CC2)c2cc(N3CCNCC3)c(F)cc2c1=O` gave an MIC of > 512 µg/mL (ALE CTX-M-15, Mueller Hinton broth; overnight, 37 °C).
`COc1ccc(CNc2ccc(C(=O)O)cc2)cc1OC` has an MIC of 64 µg/mL (broth microdilution).
The MIC of `CNC(C)C1CCC(N)C(OC2C(N)CC(N)C(OC3OCC(C)(O)C(NC)C3O)C2O)O1` (centres unmarked) is reported as 2 µg/mL (broth microdilution; NCTC 13438; 24 h, ambient air).
The MIC of `CCN1CCN(C(=O)N[C@@H](C(=O)N[C@@H]2C(=O)N3[C@@H]2SC(C)(C)[C@@H]3C(=O)O)c2ccccc2)C(=O)C1=O` is reported as 200 µM (broth microdilution; clinical isolate, Mueller-Hinton broth; 24 h, 37 °C).
`CN(C)c1ccc(O)c2c1C[C@H]1C[C@H]3[C@H](N(C)C)C(O)=C(C(N)=O)C(=O)[C@@]3(O)C(O)=C1C2=O` has an MIC of 4 µg/mL (broth microdilution; NCTC 13438; 24 h, 5% CO2).
With `N#Cc1ccc2[nH]c(CNCC34CC5CC(CC(C5)C3)C4)nc2c1` the MIC was > 128 µg/mL (ATCC 700603).
